Measurements gathered from unrelated publications.
A part holds a random share of what one study measured. Changes are numbered by the printed parent chain.
Sequence of UniProt Q96SB4 (whole entry, looked up): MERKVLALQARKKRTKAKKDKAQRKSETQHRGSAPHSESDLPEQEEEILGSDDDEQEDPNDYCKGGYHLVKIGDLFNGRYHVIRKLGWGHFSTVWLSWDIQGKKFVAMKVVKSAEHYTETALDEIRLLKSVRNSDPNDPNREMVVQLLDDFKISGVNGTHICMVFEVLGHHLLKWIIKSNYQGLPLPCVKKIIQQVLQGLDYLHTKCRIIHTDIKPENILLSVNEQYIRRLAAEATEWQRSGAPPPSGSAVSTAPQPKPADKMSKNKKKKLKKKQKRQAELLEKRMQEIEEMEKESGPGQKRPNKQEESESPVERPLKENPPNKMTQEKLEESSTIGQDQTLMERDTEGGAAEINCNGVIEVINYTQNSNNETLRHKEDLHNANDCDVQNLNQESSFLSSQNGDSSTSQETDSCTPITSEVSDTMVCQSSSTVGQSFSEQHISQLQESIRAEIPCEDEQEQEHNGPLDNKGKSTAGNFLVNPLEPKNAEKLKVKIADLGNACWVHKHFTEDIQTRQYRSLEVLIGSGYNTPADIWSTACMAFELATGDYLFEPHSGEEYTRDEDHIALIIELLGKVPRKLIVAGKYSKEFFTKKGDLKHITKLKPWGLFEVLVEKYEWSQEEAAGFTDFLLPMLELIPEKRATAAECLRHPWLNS
Sequence of UniProt P51812 (whole entry, looked up): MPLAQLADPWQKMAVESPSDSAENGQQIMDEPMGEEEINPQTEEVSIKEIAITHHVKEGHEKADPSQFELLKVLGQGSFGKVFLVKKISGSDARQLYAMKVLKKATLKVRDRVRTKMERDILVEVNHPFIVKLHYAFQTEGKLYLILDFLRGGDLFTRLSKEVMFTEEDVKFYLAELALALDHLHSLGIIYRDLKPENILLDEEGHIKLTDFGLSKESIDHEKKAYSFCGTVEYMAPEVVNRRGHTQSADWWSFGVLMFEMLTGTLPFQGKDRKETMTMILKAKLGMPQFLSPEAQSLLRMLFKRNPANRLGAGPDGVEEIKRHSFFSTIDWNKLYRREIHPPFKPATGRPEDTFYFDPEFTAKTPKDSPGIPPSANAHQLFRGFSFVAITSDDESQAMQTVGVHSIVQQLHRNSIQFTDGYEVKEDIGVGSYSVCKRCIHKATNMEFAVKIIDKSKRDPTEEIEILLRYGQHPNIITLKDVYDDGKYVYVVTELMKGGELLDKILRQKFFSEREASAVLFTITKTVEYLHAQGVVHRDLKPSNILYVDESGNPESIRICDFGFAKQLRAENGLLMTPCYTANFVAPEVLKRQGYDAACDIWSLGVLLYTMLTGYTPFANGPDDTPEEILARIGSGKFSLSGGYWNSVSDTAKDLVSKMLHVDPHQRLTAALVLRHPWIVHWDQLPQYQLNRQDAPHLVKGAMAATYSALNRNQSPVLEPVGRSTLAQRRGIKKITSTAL
Sequence of UniProt P07947 (whole entry, looked up): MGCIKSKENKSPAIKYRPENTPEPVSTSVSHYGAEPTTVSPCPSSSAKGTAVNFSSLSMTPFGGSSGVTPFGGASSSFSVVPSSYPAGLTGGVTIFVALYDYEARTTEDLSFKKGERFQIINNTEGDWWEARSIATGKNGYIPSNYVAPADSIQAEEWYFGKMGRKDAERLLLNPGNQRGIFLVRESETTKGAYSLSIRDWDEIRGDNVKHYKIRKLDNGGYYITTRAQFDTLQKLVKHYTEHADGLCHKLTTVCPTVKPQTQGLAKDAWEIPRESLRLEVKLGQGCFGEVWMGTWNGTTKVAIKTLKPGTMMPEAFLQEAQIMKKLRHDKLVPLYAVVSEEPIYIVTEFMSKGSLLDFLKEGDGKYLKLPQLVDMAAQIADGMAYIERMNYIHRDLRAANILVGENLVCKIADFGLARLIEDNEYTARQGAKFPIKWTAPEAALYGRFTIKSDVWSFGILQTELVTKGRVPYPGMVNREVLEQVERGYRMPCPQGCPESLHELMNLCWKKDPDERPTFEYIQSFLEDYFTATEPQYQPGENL
Sequence of UniProt P48730 (whole entry, looked up): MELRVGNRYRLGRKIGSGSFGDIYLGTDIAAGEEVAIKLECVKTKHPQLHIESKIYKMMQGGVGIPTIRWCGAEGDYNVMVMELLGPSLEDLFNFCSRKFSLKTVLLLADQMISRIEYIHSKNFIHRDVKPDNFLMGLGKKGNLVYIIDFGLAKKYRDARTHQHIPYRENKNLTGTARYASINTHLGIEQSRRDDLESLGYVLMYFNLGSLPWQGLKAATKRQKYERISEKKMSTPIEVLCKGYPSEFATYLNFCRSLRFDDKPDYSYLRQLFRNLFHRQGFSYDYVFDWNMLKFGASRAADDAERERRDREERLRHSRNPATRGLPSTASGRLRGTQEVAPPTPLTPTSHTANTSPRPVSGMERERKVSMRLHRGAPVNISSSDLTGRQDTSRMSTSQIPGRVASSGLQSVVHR
Sequence of UniProt Q14012 (whole entry, looked up): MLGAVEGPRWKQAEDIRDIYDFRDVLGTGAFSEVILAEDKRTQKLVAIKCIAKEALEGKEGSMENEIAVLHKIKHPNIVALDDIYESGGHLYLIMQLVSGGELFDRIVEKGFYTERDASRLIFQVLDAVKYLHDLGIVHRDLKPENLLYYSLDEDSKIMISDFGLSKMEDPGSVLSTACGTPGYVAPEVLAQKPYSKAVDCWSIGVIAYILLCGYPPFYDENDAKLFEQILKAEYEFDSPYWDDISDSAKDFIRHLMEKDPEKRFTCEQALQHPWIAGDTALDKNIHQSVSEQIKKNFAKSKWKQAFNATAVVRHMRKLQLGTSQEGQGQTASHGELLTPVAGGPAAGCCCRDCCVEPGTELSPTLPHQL
Sequence of UniProt P49760 (whole entry, looked up): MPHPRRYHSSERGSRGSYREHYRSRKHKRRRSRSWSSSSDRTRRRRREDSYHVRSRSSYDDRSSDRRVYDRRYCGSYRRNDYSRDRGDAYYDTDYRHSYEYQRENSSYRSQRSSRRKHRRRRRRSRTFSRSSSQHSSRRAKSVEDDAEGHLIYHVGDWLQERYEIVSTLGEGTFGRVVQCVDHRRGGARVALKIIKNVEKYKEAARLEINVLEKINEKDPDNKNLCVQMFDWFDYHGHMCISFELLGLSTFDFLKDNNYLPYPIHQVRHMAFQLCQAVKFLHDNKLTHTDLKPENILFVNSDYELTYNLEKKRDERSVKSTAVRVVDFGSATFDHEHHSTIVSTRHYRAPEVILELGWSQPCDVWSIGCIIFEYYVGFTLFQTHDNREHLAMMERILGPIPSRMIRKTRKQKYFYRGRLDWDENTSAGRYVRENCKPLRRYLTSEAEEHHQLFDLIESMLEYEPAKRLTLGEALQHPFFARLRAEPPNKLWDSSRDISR
Sequence of UniProt Q9P286 (whole entry, looked up): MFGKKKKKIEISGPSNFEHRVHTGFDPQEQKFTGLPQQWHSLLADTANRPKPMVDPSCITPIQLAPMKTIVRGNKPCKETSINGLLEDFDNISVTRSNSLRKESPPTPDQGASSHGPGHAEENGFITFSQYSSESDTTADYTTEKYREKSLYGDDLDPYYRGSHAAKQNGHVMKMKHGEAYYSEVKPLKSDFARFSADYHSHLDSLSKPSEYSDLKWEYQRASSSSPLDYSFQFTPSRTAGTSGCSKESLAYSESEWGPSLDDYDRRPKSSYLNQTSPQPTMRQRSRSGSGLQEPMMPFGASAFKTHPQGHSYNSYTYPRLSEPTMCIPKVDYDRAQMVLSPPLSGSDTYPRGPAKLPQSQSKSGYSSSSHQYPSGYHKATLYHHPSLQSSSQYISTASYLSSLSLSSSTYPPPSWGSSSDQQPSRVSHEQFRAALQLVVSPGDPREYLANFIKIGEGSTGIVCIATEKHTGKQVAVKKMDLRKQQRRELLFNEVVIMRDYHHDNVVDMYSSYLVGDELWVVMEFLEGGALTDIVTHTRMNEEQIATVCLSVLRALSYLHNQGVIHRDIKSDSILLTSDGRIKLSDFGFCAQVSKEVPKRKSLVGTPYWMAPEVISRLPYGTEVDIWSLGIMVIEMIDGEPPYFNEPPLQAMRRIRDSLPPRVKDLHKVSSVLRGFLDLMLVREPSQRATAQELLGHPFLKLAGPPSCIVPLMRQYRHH
Sequence of UniProt P49759 (whole entry, looked up): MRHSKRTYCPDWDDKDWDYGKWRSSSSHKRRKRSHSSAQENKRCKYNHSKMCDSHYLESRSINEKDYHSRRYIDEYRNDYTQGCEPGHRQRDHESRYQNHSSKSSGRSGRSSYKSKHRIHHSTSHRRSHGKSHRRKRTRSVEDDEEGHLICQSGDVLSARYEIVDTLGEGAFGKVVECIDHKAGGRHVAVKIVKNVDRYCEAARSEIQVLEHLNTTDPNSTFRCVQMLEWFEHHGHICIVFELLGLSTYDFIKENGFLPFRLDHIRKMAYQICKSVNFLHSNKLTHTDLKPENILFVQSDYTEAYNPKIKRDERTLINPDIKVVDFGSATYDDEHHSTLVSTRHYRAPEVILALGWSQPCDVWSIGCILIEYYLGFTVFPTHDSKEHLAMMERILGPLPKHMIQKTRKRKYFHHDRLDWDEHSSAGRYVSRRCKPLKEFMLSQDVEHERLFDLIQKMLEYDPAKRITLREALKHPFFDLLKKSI
Sequence of UniProt Q9HBY8 (whole entry, looked up): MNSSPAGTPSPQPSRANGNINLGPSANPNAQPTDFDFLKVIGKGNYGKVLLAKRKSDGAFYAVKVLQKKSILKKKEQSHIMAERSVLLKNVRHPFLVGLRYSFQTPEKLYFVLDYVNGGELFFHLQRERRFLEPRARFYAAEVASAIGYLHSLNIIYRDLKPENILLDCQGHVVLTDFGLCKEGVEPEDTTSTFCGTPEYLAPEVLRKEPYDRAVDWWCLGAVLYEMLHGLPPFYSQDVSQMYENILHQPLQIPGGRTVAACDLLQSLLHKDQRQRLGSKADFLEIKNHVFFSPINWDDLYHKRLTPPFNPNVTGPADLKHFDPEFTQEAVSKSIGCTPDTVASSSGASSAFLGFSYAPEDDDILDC

Study 1
SMILES: COc1cc2ncnc(Nc3ccc(OCc4ccccc4)cc3)c2cc1OC
Observed: enzyme activity
Mode: inhibitor
Concentration: 0.5 µM
Reference: control
target | remaining activity [%]
Serine/threonine-protein kinase PAK 1 (PAK1, Homo sapiens, UniProt Q13153) | 93.2
SRSF protein kinase 1 (SRPK1, Homo sapiens, UniProt Q96SB4) | 105
Serine/threonine-protein kinase Sgk2 (SGK2, Homo sapiens, UniProt Q9HBY8) | 100
Tyrosine-protein kinase Fes/Fps (FES, Homo sapiens, UniProt P07332) | 97
Dual specificity protein kinase CLK2 (CLK2, Homo sapiens, UniProt P49760) | 102
Mitogen-activated protein kinase kinase kinase 20 (MAP3K20, Homo sapiens, UniProt Q9NYL2) | 96.2
Serine/threonine-protein kinase PAK 5 (PAK5, Homo sapiens, UniProt Q9P286) | 99.6
Cyclin-dependent kinase 2, with cyclin E (CDK2, Homo sapiens, UniProt P24941) | 96.7
Tyrosine-protein kinase Yes (YES1, Homo sapiens, UniProt P07947) | 36
Ribosomal protein S6 kinase alpha-3 (RPS6KA3, Homo sapiens, UniProt P51812) | 103
Calcium/calmodulin-dependent protein kinase type 1 (CAMK1, Homo sapiens, UniProt Q14012) | 98.4
Casein kinase I isoform delta (CSNK1D, Homo sapiens, UniProt P48730) | 96.6
Dual specificity protein kinase CLK1 (CLK1, Homo sapiens, UniProt P49759) | 111

Study 2
Target: CCNE1, cyclin fold, Cln2 fusion (human)
Technique: yeast growth competition, sequencing
Matrix: yeast
Notes: weak parent motif
Reference: not given
Reading: higher = stronger binding
Parent: MASTL docking peptide (human); PMIAKNLMCELDE
Variant | normalised enrichment score
PMIGKNLMCELDE [A4G] | -0.0193
PMIAKALMCELDE [N6A] | -0.0743
PMIMKNLMCELDE [A4M] | -0.0279
PMIAKMLMCELDE [N6M] | 0.499
PMIARNLMCELDE [K5R] | 0.316
PMIALNLMCELDE [K5L] | 0.484
PMIAKNLQCELDE [M8Q] | -0.141
PMIAKNTMCELDE [L7T] | -0.329

Study 3
Cell line: normal-adjacent organoid sample E
Technique: CellTiter-Glo
Concentration: 0.1 µM
Notes: replicate mean
Reference: DMSO
SMILES | viability [%]
O=C(N[C@H]1CCCCC/C=C\C2C[C@@]2(C(=O)O)NC(=O)[C@@H]2C[C@@H](Oc3ccncc3)CN2C1=O)OC1CCCC1 (stereo partly drawn) | 114
Cc1ccc(-c2cnc([C@@]3(O)CC[C@H](C(=O)O)C(C)(C)C3)s2)cc1Nc1cccc(C(F)(F)F)n1 | 105
O[C@]1(C(F)(F)F)CCCC[C@H]1Nc1ccc(F)cc1 | 94.6
O=S(=O)(NC1CCC(c2cc(F)ccc2F)(S(=O)(=O)c2ccc(Cl)cc2)CC1)C(F)(F)F (stereo not drawn) | 87.5
Cc1c[nH]c2nccc(Oc3c(F)cc(Nc4cc(Cl)nc(N)n4)cc3F)c12 | 132
Cc1nc(Cc2cccc(C(F)(F)F)c2)sc1-c1ccc(C(N)=O)nc1 | 91.7
Nc1cnc(N2CCc3cc(S(=O)(=O)Nc4c(F)cc(Cl)cc4F)cc(N4CCCC4=O)c32)nc1 | 113
CS(=O)(=O)N1CCCC(NC(=O)[C@H](CCC2CCCCC2)NC(=O)c2ccc(CNC(=O)c3cnc4ccccn34)cc2)C1 (stereo partly drawn) | 136

Other studies, line by line
SMILES | matrix | measurement | value
CCOC(=O)[C@@H]1CSCC(=O)N[C@@H](CC)C(=O)N(C)[C@@H](C)C(=O)N[C@@H](CC(C)C)C(=O)N2CCC[C@@H]2C(=O)N(CC(C)C)CC(=O)N[C@H](CC(C)C)C(=O)N(C)[C@@H](C)C(=O)N[C@@H](CC(C)C)C(=O)N1C | hydrocarbon/water | logD | 1.19

Some of these lines once more (other studies, line by line):
SMILES | matrix | measurement | value
CCOC(=O)[C@@H]1CSCC(=O)N[C@@H](CC)C(=O)N(C)[C@@H](C)C(=O)N[C@@H](CC(C)C)C(=O)N2CCC[C@@H]2C(=O)N(CC(C)C)CC(=O)N[C@H](CC(C)C)C(=O)N(C)[C@@H](C)C(=O)N[C@@H](CC(C)C)C(=O)N1C | hydrocarbon/water | logD | 1.19
